Measured values from different studies.
Each line is one published result; not all experiments were run side by side. Numbers after ± are the reported error.
ESR1: Estrogen receptor (ESR1, Homo sapiens, UniProt P03372)
RORC: Nuclear receptor ROR-gamma (RORC, Homo sapiens, UniProt P51449)

SMILES	target	assay	test system	setting	EC50
Cn1cc2c(C(=O)O)ccc(NS(=O)(=O)c3ccc(OCC4CCC4)c(Cl)c3)c2n1	CNR1 (Homo sapiens, UniProt P21554)	agonist	–	–	> 10000 nM
COc1ccc(-c2oc3c(CC=C(C)C)c(O)cc(O)c3c(=O)c2O[C@@H]2O[C@@H](C)[C@H](O)[C@@H](O)[C@H]2O)cc1	ESR1	array formation, agonist	ERα-GFP PRL-HeLa	1 h	1290 nM
COc1c(O)cc2oc3cc(O)c(CC=C(C)C)c(O)c3c(=O)c2c1CCC(C)(C)O	Cyclin-dependent kinase 2, with cyclin E1 (CDK2, Homo sapiens, UniProt P24941)	kinase activity, inhibitor	–	–	28200 nM
O=S(=O)(c1cccc(C(F)(F)F)c1)N1CCc2ccc(OCc3c(Cl)cccc3Cl)cc21	RORC	reporter gene, agonist, GAL4 luciferase reporter	–	with: ursolic acid 2 µM	170 ± 40 nM
CCC(C)(C)C(=O)C(=O)N1CCCC[C@H]1C(=O)N[C@H](CCc1ccc(OC)cc1)C(=O)N1[C@@H]2CC[C@H]1C[C@H](Nc1nc(NCCc3sc(N)nc3C)nc(N3CCn4ncnc4C3)n1)C2	Autophagy-related protein 16-1 (ATG16L1, Homo sapiens, UniProt Q676U5)	protection from caspase-3 cleavage, AlphaLISA	–	–	11500 nM
O=C1Nc2c(ccc(Cl)c2Cl)C1=NO	KCNN4/CALM1 (Homo sapiens, UniProt O15554+P0DP23, N201F)	ion current, activator, whole-cell patch clamp	–	N201F mutant	195 nM
COc1c(O)cc2oc(-c3ccc(O)cc3)cc(=O)c2c1O	GABRA1 (Homo sapiens, UniProt P14867, G251D)	Western blot, refers to: GABRA1 G251D protein level	HEK293T stably expressing α1 G251D	24 h	6200 ± 400 nM
O=C1C[C@@H](c2ccc(O[C@@H]3O[C@H](CO)[C@@H](O)[C@H](O)[C@H]3O)cc2)Oc2cc(O)ccc21	ESR1	array formation, agonist	ERα-GFP PRL-HeLa	1 h	2670 nM
CCCCCCCP(=O)(C(C)C)C(C)C	Trpm8 (Rattus norvegicus, UniProt Q8R455)	calcium influx, agonist, calcium fluorescence imaging	–	32 °C	2240 ± 690 nM
Cc1nn(-c2nc3ccccc3s2)c(O)c1C(c1ccccc1C(=O)O)c1c(C)nn(-c2nc3ccccc3s2)c1O	Cyclic GMP-AMP synthase, catalytic domain; with DNA (CGAS, Homo sapiens, UniProt Q8N884)	liquid phase condensation, inhibitor	–	–	300 nM
CC1CN(S(=O)(=O)c2cccc(C(F)(F)F)c2)c2cc(OCc3c(F)cccc3Cl)ccc21 (stereo not drawn)	RORC	reporter gene, agonist, GAL4 luciferase reporter	–	with: ursolic acid 2 µM	1800 ± 640 nM
CC(=O)c1cc([N+](=O)[O-])c(Sc2cccc(Cl)c2Cl)s1	USP8 (Homo sapiens, UniProt P40818)	enzyme activity, inhibitor	–	–	> 50000 nM
COc1ccc(CCC(=O)c2c(O)cc(O[C@@H]3O[C@H](CO)[C@@H](O)[C@H](O)[C@H]3O[C@@H]3O[C@@H](C)[C@H](O)[C@@H](O)[C@H]3O)cc2O)cc1O	ESR1	array formation, agonist	ERα-GFP PRL-HeLa	1 h	976 nM
O=S(=O)(c1cccc(C(F)(F)F)c1)N1c2cc(OCc3c(F)cncc3Cl)ccc2CC1C(F)(F)F (stereo not drawn)	RORC	reporter gene, agonist, GAL4 luciferase reporter	–	with: ursolic acid 2 µM	150 ± 20 nM
COc1c(O)cc2oc(-c3ccccc3)cc(=O)c2c1O	ESR1	array formation, agonist	ERα-GFP PRL-HeLa	1 h	1170 nM
CN(C)CCC=C1c2ccccc2CCc2ccccc21	ESR1	–	human cells	–	> 100000 nM
O=c1c(-c2ccc(O[C@@H]3O[C@H](CO)[C@@H](O)[C@H](O)[C@H]3O)cc2)coc2cc(O)cc(O)c12	ESR1	array formation, agonist	ERα-GFP PRL-HeLa	1 h	819 nM
O=S(=O)(c1cccc(C(F)(F)F)c1)N1CCc2ccc(OCc3c(F)cncc3Cl)cc21	RORC	reporter gene, agonist, GAL4 luciferase reporter	–	with: ursolic acid 2 µM	760 ± 120 nM
O=C(/C=C/c1ccccc1)c1ccccc1	ESR1	array formation, agonist	ERα-GFP PRL-HeLa	1 h	523 nM
COc1cccnc1COc1ccc2c(c1)N(S(=O)(=O)c1cccc(C(F)(F)F)c1)CC2	RORC	reporter gene, agonist, GAL4 luciferase reporter	–	with: ursolic acid 2 µM	480 ± 130 nM
CCN(C(=O)C1CCN(S(=O)(=O)c2ccc3[nH]ncc3c2)CC1)[C@H](C)c1ccccc1	CHRM3 (Homo sapiens, UniProt P20309)	calcium mobilization, positive allosteric modulator	CHO cells expressing CHRM3	–	1700 nM
O=S(=O)(c1cccc(C(F)(F)F)c1)N1c2cc(OCc3c(F)cccc3Cl)ccc2CC1C(F)(F)F (stereo not drawn)	RORC	reporter gene, agonist, GAL4 luciferase reporter	–	with: ursolic acid 2 µM	180 ± 30 nM
Cn1cc(-c2cnc(N)n3nc(-c4ccco4)nc23)ccc1=O	ADORA2B (Homo sapiens, UniProt P29275)	–	–	–	> 100000 nM
O=S(=O)(c1cccc(C(F)(F)F)c1)N1CCc2ccc(OCc3ccccc3OC(F)(F)F)cc21	RORC	reporter gene, agonist, GAL4 luciferase reporter	–	with: ursolic acid 2 µM	1200 ± 240 nM
COc1ccc(-c2cc(=O)c3c(O)cc(O[C@@H]4O[C@H](CO)[C@@H](O)[C@H](O)[C@H]4O[C@@H]4O[C@@H](C)[C@H](O)[C@@H](O)[C@H]4O)cc3o2)cc1O	ESR1	array formation, agonist	ERα-GFP PRL-HeLa	1 h	23 nM
COc1ccccc1COc1ccc2c(c1)N(S(=O)(=O)c1cccc(C(F)(F)F)c1)CC2	RORC	IL-17 production, inverse agonist	HEK-293T	with: ursolic acid	110 nM
O=c1cc(-c2ccccc2)oc2cc(O)ccc12	ESR1	array formation, agonist	ERα-GFP PRL-HeLa	1 h	155 nM

Excerpt of the above:
SMILES	target	assay	test system	setting	EC50
COc1cccnc1COc1ccc2c(c1)N(S(=O)(=O)c1cccc(C(F)(F)F)c1)CC2	RORC	reporter gene, agonist, GAL4 luciferase reporter	–	with: ursolic acid 2 µM	480 ± 130 nM
CCN(C(=O)C1CCN(S(=O)(=O)c2ccc3[nH]ncc3c2)CC1)[C@H](C)c1ccccc1	CHRM3 (Homo sapiens, UniProt P20309)	calcium mobilization, positive allosteric modulator	CHO cells expressing CHRM3	–	1700 nM
O=S(=O)(c1cccc(C(F)(F)F)c1)N1c2cc(OCc3c(F)cccc3Cl)ccc2CC1C(F)(F)F (stereo not drawn)	RORC	reporter gene, agonist, GAL4 luciferase reporter	–	with: ursolic acid 2 µM	180 ± 30 nM
